Measurements from different studies.
Each numbered part is a random draw from the data of one study; scales do not carry over between parts.

Study 1 — method: protein binding microarray; molecule type: double-stranded DNA, one strand shown; medium: in vitro; tested at: not given; reference: not given; reading: higher = stronger binding; measurement: E-score
Target: Histone acetyltransferase KAT6A, both winged helices, GST fusion (KAT6A, Homo sapiens, UniProt Q92794, residues 1-181)
Setting: 8-mer, flanks averaged, mean of 2 arrays, mostly near background
Target sequence (chain): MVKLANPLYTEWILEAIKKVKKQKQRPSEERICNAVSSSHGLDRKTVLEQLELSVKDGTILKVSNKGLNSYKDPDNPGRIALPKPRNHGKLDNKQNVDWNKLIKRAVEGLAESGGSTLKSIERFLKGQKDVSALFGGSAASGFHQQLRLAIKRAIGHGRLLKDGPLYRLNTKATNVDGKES
Sequence = ACGGGAAG; result = 0.295
Sequence = CCGCTGAA; result = 0.0852
Sequence = ATATGCAA; result = 0.0123
Sequence = GCATTCAA; result = -0.0598
Sequence = AGTAGGCA; result = -0.256

Study 2 — method: aptamer microarray, sandwich; molecule type: DNA with 2'F-ANA; medium: in vitro; tested at: 200 nM; together with: Cy3 exosite-II aptamer, 400 nM; reading: higher = stronger binding; measurement: mean fluorescence intensity; sequence: GGTTGGTGTGGTTGG
Target: Prothrombin, mature alpha-thrombin (F2, Homo sapiens, UniProt P00734)
Setting: whole 15-mer aptamer, many near background
Modification = 2'F-ANA at 3 4 5 9 10 13 14 15; result = 53.7 a.u.
Modification = 2'F-ANA at 4 5 6 7 10 11 14 15; result = 44 a.u.
Modification = 2'F-ANA at 3 6 7 9; result = 850 a.u.
Modification = 2'F-ANA at 1 3 4 6 7 8 12 13 14; result = 110 a.u.
Modification = 2'F-ANA at 2 3 4 5 6 7 10 13; result = 100 a.u.
Modification = 2'F-ANA at 2 3 8 12 13 14; result = 439 a.u.

Study 3 — method: universal PBM; molecule type: double-stranded DNA, one strand shown; medium: in vitro; tested at: 600 nM; reading: higher = stronger binding; measurement: E-score
Target: Sal-like protein 4, full length isoform A (SALL4, Homo sapiens, UniProt Q9UJQ4, residues 1-1053)
UniProt Q9UJQ4, sequence (whole entry, looked up): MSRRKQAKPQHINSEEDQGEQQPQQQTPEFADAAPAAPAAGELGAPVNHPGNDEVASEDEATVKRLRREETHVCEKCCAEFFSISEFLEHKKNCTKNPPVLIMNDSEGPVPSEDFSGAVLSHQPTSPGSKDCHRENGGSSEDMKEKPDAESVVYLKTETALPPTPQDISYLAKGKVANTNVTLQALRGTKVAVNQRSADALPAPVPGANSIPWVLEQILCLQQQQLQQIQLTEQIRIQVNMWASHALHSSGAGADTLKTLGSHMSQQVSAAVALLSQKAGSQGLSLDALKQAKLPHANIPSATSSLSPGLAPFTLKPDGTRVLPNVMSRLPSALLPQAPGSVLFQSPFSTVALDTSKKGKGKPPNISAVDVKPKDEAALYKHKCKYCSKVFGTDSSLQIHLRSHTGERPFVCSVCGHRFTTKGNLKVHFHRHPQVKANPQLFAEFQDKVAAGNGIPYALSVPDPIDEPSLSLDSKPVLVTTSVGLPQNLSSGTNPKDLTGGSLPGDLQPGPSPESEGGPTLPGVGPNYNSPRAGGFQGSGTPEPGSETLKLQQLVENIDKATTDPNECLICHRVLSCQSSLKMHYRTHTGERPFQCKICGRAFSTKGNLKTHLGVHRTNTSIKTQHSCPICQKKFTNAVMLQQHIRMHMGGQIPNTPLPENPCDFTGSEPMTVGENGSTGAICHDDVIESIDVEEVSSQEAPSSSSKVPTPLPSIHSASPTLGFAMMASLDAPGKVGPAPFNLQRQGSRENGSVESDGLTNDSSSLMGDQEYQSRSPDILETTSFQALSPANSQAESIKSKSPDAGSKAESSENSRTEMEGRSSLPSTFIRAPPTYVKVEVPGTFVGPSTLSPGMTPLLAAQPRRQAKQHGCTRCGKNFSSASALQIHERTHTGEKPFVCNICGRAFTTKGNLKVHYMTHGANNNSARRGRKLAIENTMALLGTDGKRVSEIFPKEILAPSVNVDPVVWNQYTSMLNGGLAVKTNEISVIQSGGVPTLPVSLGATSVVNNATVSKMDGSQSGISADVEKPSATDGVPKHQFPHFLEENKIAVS
Setting: 8-mer, flanks averaged, mean of replicates
Sequence = ACCCACGC; result = -0.216
Sequence = CTCTGGGA; result = -0.291
Sequence = CTGCATCC; result = -0.231
Sequence = CCGAATTA; result = 0.138

Other studies, line by line
Substance = PhoQ, residues 284 288 289 292 302 303 ASASEQ; target = PhoP, residues 12 14 15 18 19 SFCSL (Escherichia coli, UniProt P23836); test = Sort-seq, item: YFP reporter; test system = E. coli; setting = PhoQ-PhoP variant library, together with: 10 µM Mg2+; scale = reference: high Mg2+ state, higher = stronger signaling; measurement = fold induction; result = 4.97

Some of these lines once more (study 2):
Modification = 2'F-ANA at 4 5 6 7 10 11 14 15; result = 44 a.u.
